Experimental data from different studies.
Each numbered part is a random draw from the data of one study; scales do not carry over between parts. Changes are numbered by the printed parent chain.

Sample 1 — target: CCNE1, cyclin fold, Cln2 fusion (human); technique: yeast growth competition, sequencing; sample: yeast; setting: strong parent motif; relative to: not given; direction: higher = stronger binding
Parent: CDKN1B docking peptide (human); PSACRNLFGPVDH; partner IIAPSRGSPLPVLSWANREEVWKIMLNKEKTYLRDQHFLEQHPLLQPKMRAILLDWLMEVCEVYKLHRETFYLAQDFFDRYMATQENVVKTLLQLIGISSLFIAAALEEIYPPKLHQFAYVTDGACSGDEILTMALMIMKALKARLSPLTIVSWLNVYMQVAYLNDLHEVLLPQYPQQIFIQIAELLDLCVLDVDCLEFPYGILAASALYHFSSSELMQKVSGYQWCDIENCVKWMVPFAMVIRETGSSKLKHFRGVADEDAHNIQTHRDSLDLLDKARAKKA
| Variant | normalised enrichment score |
| --- | --- |
| PSACRNLFGPVVH [D12V] | 2.78 |
| PSACRNLFGPVDC [H13C] | 2.85 |
| PEACRNLFGPVDH [S2E] | 1.85 |
| PSACRNLSGPVDH [F8S] | 0.22 |
| PSACRNLFGPVDL [H13L] | 3.24 |
| PSACNNLFGPVDH [R5N] | 0.319 |
| PSACRNLFFPVDH [G9F] | 1.6 |
| PSSCRNLFGPVDH [A3S] | 0.744 |
| PIACRNLFGPVDH [S2I] | 1.41 |
| PDACRNLFGPVDH [S2D] | 1.89 |
| PSACRNLFGPVDV [H13V] | 2.79 |
| PSAWRNLFGPVDH [C4W] | 0.773 |
| PSADRNLFGPVDH [C4D] | 0.385 |
| PSACRNLFGPIDH [V11I] | 2.96 |
| PSPCRNLFGPVDH [A3P] | 1.4 |
| PSACRNLFGYVDH [P10Y] | 3.15 |
| PSACRNLFNPVDH [G9N] | 1.2 |
| PSACRNLFGPWDH [V11W] | 4.97 |
| PSACRNLFGPVIH [D12I] | 2.43 |
| PYACRNLFGPVDH [S2Y] | 1.02 |
| PSACRNLFGPVDM [H13M] | 2.87 |
| PSACRNAFGPVDH [L7A] | 0.359 |
| PSACRNLFGPVDY [H13Y] | 3.39 |

Sample 2 — technique: RNAcompete; form: RNA; sample: in vitro; concentration: 20 nM; setting: 7-mer, probes averaged, single round; relative to: mean of 7-mers; direction: higher = stronger binding
Target: PABPC1L2, full length, GST fusion (mouse, UniProt A0ABA7IW68)
Construct (chain): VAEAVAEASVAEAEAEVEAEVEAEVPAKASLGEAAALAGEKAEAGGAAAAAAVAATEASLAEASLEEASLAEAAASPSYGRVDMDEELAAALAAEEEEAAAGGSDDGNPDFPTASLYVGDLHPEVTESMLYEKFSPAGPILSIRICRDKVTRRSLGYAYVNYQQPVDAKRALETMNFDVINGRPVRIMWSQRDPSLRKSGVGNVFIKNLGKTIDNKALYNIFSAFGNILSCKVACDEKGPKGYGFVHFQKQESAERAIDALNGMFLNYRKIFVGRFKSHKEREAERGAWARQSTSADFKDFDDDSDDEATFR
| Oligonucleotide | 7-mer Z-score |
| --- | --- |
| GCCCCGU | -0.364 |
| GCCGCCC | -0.45 |
| AAGACGG | 0.423 |
| AGAUUGC | -0.246 |
| CCCUGGU | -0.412 |
| CUGAAGA | -0.126 |
| CGUAUCG | -0.391 |
| CUUUUGC | -0.344 |
| UGUCUAA | -0.0881 |
| GGCAGCU | 0.0968 |
| AUUAUCG | -0.191 |
| AGGCUUG | 0.017 |
| GCACGUU | -0.182 |
| GAAUGGG | 0.274 |
| ACUUAUC | -0.173 |
| CACUUUG | -0.331 |
| AGGUACG | -0.00289 |
| UAUGAAA | 0.624 |
| UUCAGAA | 0.0297 |
| AGCUCAC | -0.318 |
| UAAGCCA | -0.229 |
| UACGAAG | -0.148 |
| CUAACGU | -0.316 |
| GCCCACU | -0.213 |
| UUAGAGG | 0.0932 |

Sample 3 — technique: RNA Bind-n-Seq; form: RNA; sample: in vitro; concentration: 1 µM; setting: whole 134-nt RNA, ends assumed; added: 150 mM KCl; relative to: input library; direction: higher = stronger binding
Target: Ras GTPase-activating protein-binding protein 1, RRM domain (G3BP1, Homo sapiens, UniProt Q13283)
UniProt Q13283, sequence (whole entry, looked up): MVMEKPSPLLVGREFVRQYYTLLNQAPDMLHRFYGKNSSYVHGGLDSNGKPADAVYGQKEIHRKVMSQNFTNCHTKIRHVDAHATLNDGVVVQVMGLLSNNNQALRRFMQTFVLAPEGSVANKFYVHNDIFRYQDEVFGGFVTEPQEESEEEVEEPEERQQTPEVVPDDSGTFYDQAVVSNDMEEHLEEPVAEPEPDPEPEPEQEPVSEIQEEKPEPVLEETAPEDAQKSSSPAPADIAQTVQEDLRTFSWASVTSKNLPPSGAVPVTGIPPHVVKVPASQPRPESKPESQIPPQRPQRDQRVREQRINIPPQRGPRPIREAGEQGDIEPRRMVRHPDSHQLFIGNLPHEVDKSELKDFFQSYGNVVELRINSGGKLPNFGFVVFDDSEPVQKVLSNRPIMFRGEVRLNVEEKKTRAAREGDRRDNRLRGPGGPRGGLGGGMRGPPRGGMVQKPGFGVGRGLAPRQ
| Oligonucleotide | log2 enrichment |
| --- | --- |
| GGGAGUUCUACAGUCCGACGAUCACCAUGCAGGUGGGCAUCUUUGGGAAGUGGGGCAAGGGGGGGAUAGGGAGGGGGGUAACACUUUGGGAACAAAUGGUCCCAGGUCGUUUCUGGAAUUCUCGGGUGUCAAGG | -0.398 |
| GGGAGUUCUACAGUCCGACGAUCCAAGUCCUGUGCUACACAUCGUAUGUACCGAAUCGGAAAAAGGUUUUUGGUUUGGAAAGUAUUAUGUUACGCCGUUCGGAUCUGCACUUCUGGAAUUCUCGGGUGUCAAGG | -0.333 |
| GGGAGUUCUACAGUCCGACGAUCUUCCCCUGGAGGGCGCCUCCAUCCUUGGAGGCCUAGUGCCGUCGGAGAGAGAGCGGGAGCCGCGGACAGAGACGCGUGCGCAAUUCGGAGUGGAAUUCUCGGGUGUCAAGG | -0.502 |
| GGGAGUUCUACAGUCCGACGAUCCACAGACAACACGCACCGACACAGACACAGAGGGAAGGGGUUGGGAUGGGGACAGGGUGCACAGCAGGGCGGGGUAGGACCCCAGCCCCUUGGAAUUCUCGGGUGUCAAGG | -0.032 |
| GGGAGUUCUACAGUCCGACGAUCCUCAAGUCCUGUGCUACACAUCGUAUGUACCGAAUCGGUUUGGUUUGGUUUGGGAAAGUAUUAUGUUACGCCGUUCGGAUCUGCACUUCCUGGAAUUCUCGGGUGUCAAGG | -0.291 |
| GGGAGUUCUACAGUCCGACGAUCGCAGGAAGUAAAAACAAAUGGAAAUGCUUCGGAUAGUGGCACGGGUGGGGGUUGCUAAGGAAAGGGUGGGAUGGGAGUGGGUAAAGAGUUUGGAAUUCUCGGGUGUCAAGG | 0.949 |
| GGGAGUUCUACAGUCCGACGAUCUGCUGCGGAAGGGCUCUGGCACUCUGUGUGAGGCCUUGCUGAUGGUGCAGGCCUUCCACGCCAACAUCAUCUUCCCCAACAAGCAAGAGCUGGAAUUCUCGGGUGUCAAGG | -0.42 |
| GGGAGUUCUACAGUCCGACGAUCCAAGUCCUGUGCUACACAUCGUAUGUACCGAAUCGGGUGGGUUUUUGGGUUUGGGAAAGUAUUAUGUUACGCCGUUCGGAUCUGCACUUCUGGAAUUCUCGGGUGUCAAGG | 0.46 |
| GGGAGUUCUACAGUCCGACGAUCCUCAAGUCCUGUGCUACACAUCGUAUGUACCGAAUCGGUUGGGUUGGGUUGGGGAAAGUAUUAUGUUACGCCGUUCGGAUCUGCACUUCCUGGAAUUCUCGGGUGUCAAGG | -0.0109 |
| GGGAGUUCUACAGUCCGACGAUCCUGUGCUACACAUCGUAUGUACCGAAUCGGGGAAAAAAAGGGGAAAAAGGGGAAAAAGGGGAAAGUAUUAUGUUACGCCGUUCGGAUCUGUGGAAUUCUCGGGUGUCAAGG | 0.766 |

Sample 4 — technique: RNA Bind-n-Seq; form: RNA; sample: in vitro; concentration: 365 nM; relative to: no-protein control; direction: higher = stronger binding
Target: RNA binding protein fox-1 homolog 2, RRM domain, GST-SBP tag (RBFOX2, Homo sapiens, UniProt O43251-10, residues 100-194)
Setting: natural RNA segment, single round, ends assumed
Construct (chain): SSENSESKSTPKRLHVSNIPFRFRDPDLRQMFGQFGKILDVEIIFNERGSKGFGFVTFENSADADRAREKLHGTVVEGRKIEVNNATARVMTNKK
| Oligonucleotide | RBNS enrichment (R) |
| --- | --- |
| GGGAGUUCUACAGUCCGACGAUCCCGUGCAAGCAUUCCAUUCGGCAGGGAGGAUCAGUUCCUUAGCUCCCUGCCUUAACCUAGGACCAACCUGGGACCUGACCUGUGAGGACUCUGUGCUGACCUUAUUCUUGUGGAAUUCUCGGGUGCCAA | 1.1 |
| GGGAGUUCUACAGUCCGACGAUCAAAAAAAGAGUUGAGUGAAUCUGUUUACAUUUAGAAUAAUGUUUUUUUCUUCAAGAGACGCAAUUGCAAUAGUAUUUUUUAGAUUUUAUCCAAGAAGUUUUUUGGGCGAAUGGAAUUCUCGGGUGCCAA | 0.466 |
| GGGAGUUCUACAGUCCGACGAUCCUGCCCAGGUGGGGUGGGGUGGCCCAGGCAGCAGAAGGUUCCCUGAGGUCCCAGAGCCUGUUCCGUUGGCCCUGGGCCGAGGCCCACAGGUGCUGCCCUUGCUGCUGCUGUGGAAUUCUCGGGUGCCAA | 0.269 |
| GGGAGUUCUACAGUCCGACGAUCUUCAAGAUGUUAUAUUAAAGAAAAACUUUAAAAAUUAUUAUAUAUUUAUAGCAAAGUUAUCUUAAAUAUGAAUUCUGUUGUAAUUUAAUGACUUUUGAAUUACAGAGAUAUGGAAUUCUCGGGUGCCAA | 1.08 |
| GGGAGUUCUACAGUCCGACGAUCAUCAAAUAUCCCUAGGUCAUCUGCCACCCACUUUCCAAGACCUUUCUCCUACUCAACCAGGAAGUCAUGGUUUCUGCAGUCCAGAGCCAUGGCAACUGAGAUUCUAAGCUUGGAAUUCUCGGGUGCCAA | 0.239 |
| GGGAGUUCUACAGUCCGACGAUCUGUGUAAGCAUUGAACACUGUCUUAGGAAAGGCCAUGAGGCCAUAUUUCUGUCAACCCUGGACCAACCAGUCUCUUAGAAGCCACUCAAGGGUAUAACACAUGCUCCGAGUGGAAUUCUCGGGUGCCAA | 1.24 |
| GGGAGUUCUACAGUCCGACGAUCUUCCACAUUAAUUAGAUUUUCUUGCAGUUUUUUUAUGGCAUUUUUUUAAAGAUGCCCUAAGUGUUGAAGAAGAGUUUGCAAAUGCAACAAAAUAUUUAAUUACCGGUUGUUGGAAUUCUCGGGUGCCAA | 1.14 |
| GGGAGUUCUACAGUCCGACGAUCGCAGGACUGGAAGAACAGUGGAGCCCCGUGGGUCUCACCCUUUAAGGAUGCUGAGGCCUAGAGAUGGGAAGUGACUUGCUCAAGGUCACACAAUUGGAUAGUGACAUAGCUGGAAUUCUCGGGUGCCAA | 0.746 |
| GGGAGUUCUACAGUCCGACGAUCGCCAGUGUCUCUGCUUGAGAUGGAAUGGUGUUCCCAGCCUGCCUUGUCACUCCUCACCUGAGAGGAAGCAGUGGGUGGUCUGACUCUGCAGCCCAGAGACACAGGAGGCUUGGAAUUCUCGGGUGCCAA | 0.332 |
| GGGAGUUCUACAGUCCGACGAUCUUAUUGAUGUUUUAUAUAGAGAGUAGGAUCAUUAGUUUUUGUUACUGUAAUGUUUGAUGUCUCAAAUGCACCGUAUUACGGUAAUAACAUGGUUUCGAAAACUUUCUGUUUGGAAUUCUCGGGUGCCAA | 0.323 |
| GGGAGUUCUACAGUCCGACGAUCCCUCCCCUUGGAAGUUCCCCAUUGUCACUGAGAACCACCAAAUUUGACUUUCACAUUUGGUCUCAGAAUUUAGGUUCCUGCCCUGUUGUUUUUCUUUCUUUUUCUUUUUUUGGAAUUCUCGGGUGCCAA | 0.74 |
| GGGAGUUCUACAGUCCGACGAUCUGGGUCUGAGGUUAUCCCUGUCCCCAUGCCCCCUCUGUGCCCCGAGCUCUGUCUCCCCACUCUUGCUGUUGUGUUGUCCUUGUGAAUGUAUGGCUGACCCACUCCAGGCCUGGAAUUCUCGGGUGCCAA | 3.23 |

A few entries again (sample 1):
| Variant | normalised enrichment score |
| --- | --- |
| PSACRNLFGPVDV [H13V] | 2.79 |
| PSAWRNLFGPVDH [C4W] | 0.773 |
| PSADRNLFGPVDH [C4D] | 0.385 |
| PSACRNLFGPIDH [V11I] | 2.96 |
| PSPCRNLFGPVDH [A3P] | 1.4 |
| PSACRNLFGYVDH [P10Y] | 3.15 |
| PSACRNLFNPVDH [G9N] | 1.2 |
| PSACRNLFGPWDH [V11W] | 4.97 |
| PSACRNLFGPVIH [D12I] | 2.43 |
